Measured values collected from several papers.
Numbered parts are unrelated; each lists some results of a single study.
UniProt Q15349, sequence (whole entry, looked up): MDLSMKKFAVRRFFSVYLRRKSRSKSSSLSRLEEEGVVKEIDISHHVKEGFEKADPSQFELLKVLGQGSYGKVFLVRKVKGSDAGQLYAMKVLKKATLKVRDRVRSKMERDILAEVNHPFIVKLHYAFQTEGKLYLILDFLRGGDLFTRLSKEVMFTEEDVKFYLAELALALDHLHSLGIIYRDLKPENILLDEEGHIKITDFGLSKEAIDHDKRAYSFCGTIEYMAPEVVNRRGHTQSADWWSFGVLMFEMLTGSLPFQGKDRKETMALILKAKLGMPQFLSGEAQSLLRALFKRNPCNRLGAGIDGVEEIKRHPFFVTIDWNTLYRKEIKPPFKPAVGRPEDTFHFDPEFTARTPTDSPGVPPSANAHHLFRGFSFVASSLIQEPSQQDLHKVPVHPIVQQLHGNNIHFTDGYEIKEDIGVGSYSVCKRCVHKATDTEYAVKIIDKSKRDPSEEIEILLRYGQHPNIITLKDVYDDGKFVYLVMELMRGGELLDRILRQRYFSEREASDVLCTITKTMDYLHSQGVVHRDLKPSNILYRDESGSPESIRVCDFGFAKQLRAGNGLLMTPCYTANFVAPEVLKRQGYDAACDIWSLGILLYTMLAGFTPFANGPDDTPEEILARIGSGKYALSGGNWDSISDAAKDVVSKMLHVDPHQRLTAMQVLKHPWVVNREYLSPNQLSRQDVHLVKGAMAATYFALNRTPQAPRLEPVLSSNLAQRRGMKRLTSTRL
UniProt Q9NRP7, sequence (whole entry, looked up): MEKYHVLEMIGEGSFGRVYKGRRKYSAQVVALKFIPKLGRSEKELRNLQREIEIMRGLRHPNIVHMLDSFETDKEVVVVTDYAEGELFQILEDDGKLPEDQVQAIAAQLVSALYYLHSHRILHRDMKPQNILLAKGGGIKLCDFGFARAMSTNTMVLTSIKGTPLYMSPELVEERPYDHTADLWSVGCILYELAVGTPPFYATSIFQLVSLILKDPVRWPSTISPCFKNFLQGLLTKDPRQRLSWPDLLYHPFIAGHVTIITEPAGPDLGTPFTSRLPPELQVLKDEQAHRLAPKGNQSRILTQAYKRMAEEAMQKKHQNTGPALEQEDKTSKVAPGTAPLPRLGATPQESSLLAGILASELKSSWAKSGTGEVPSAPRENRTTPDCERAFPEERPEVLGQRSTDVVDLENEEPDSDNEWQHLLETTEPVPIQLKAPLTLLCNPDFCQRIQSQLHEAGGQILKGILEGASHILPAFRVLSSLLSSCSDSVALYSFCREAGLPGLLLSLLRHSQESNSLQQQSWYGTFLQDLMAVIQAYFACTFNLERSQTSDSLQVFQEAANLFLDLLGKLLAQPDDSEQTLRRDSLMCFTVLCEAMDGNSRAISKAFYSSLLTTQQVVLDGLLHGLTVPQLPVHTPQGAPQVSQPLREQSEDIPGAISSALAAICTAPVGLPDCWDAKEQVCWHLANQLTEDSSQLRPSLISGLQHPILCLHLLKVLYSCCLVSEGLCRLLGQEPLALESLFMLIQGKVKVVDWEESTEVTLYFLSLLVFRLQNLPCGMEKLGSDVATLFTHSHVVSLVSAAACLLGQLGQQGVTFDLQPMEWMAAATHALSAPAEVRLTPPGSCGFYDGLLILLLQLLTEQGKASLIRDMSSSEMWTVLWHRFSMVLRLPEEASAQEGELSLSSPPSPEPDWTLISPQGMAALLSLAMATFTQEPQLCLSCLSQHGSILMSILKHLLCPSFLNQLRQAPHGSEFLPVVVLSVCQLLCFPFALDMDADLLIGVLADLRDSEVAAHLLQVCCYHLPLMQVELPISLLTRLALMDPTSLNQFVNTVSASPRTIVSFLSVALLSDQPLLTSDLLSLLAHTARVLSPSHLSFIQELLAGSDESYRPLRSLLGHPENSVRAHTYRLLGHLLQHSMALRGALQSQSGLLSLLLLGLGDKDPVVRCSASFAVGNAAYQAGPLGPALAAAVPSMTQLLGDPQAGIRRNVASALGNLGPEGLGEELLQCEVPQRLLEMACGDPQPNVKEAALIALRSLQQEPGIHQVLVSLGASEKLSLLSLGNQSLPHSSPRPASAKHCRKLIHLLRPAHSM
UniProt O00238, sequence (whole entry, looked up): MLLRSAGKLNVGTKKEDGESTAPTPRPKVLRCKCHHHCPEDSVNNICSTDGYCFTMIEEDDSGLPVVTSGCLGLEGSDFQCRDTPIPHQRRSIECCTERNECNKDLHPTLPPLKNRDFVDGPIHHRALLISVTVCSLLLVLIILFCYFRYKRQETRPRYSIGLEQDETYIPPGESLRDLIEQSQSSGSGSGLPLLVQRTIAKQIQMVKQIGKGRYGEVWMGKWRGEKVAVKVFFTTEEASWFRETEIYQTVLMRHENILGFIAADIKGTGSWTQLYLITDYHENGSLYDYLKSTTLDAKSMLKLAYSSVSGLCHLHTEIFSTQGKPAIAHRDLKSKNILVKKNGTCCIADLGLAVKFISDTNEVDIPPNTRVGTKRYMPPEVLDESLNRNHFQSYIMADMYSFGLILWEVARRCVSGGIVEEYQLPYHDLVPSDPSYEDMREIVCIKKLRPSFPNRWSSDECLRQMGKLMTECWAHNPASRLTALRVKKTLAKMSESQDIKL
UniProt Q86YV6, sequence (whole entry, looked up): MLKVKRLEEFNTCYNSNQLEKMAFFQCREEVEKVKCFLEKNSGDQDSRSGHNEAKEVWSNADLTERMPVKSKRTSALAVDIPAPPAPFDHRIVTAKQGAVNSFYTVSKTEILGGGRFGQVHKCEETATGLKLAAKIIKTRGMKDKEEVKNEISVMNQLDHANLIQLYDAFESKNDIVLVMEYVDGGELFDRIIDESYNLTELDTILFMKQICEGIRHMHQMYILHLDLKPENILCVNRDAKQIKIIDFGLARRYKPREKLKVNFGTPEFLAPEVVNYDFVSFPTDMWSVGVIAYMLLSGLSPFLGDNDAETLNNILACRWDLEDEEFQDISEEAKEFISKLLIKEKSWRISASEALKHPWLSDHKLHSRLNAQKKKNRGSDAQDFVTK

Set 1
Target: Beta-1 adrenergic receptor (ADRB1, Homo sapiens, UniProt P08588)
UniProt P08588, sequence (whole entry, looked up): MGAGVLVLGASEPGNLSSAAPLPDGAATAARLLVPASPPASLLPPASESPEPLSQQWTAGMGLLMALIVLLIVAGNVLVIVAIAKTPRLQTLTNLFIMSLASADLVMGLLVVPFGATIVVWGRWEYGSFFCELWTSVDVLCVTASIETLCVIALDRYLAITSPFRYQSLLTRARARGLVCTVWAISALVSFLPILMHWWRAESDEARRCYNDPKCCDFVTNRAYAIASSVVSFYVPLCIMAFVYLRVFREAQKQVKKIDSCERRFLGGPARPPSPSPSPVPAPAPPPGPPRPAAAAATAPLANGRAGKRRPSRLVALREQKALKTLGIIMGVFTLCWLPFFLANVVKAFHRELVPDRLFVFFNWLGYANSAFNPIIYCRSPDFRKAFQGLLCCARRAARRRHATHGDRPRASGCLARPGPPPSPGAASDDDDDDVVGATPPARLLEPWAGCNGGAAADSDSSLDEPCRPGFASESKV
Action: antagonist
Endpoint: IC50
COCCN1CCNc2nc(CNCC(C)(C)CO)n(Cc3ccccc3)c2C1=O: ≥ 100 µM
COc1ccccc1N1CCN(CCCCN[S+](=O)([O-])c2cccc3c(N(C)C)cccc23)CC1: ≥ 100 µM
CCc1nc(Nc2cccc(C(O)CO)c2)c2ccsc2n1 (stereo not drawn): ≥ 100 µM
COc1ccc(Nc2n[nH]c(C(O)c3ccccc3)n2)cc1OC (stereo not drawn): ≥ 100 µM
COC(=O)CN1CCN(c2ccccc2OC)CC1: ≥ 100 µM
Cc1nc(N)sc1-c1ccnc(Nc2ccc(N3CCOCC3)cc2)n1: ≥ 100 µM
O=C(Nc1ccccc1OC(F)(F)F)c1sc2cc(F)ccc2c1Cl: ≥ 100 µM

Set 2
SMILES: CN(C(=O)c1ccccc1)c1cc(N(C)c2ccc3c(c2)CCc2ccc(C(=O)NCCN4CCOCC4)cc2C3=O)ccc1F
Effect on: cell-free assay
Method: competition with immobilised ligand
Tested at: 1 µM
Endpoint: remaining binding
SRSF protein kinase 1 (SRPK1, Homo sapiens, UniProt Q96SB4): 87%
Serine/threonine-protein kinase 36 (STK36, Homo sapiens, UniProt Q9NRP7): 93%
Mitogen-activated protein kinase kinase kinase 4 (MAP3K4, Homo sapiens, UniProt Q9Y6R4): 80%
Serine/threonine-protein kinase SIK2 (SIK2, Homo sapiens, UniProt Q9H0K1): 100%
Serine/threonine-protein kinase STK11 (STK11, Homo sapiens, UniProt Q15831): 100%
Myosin light chain kinase 2, skeletal/cardiac muscle (MYLK2, Homo sapiens, UniProt Q9H1R3): 100%
Receptor-type tyrosine-protein kinase FLT3 (FLT3, Homo sapiens, UniProt P36888, D835V/ITD): 85%
Myotonin-protein kinase (DMPK, Homo sapiens, UniProt Q09013): 69%
Myosin light chain kinase family member 4 (MYLK4, Homo sapiens, UniProt Q86YV6): 95%
Epidermal growth factor receptor (EGFR, Homo sapiens, UniProt P00533, L858R): 100%
Serine/threonine-protein kinase 32C (STK32C, Homo sapiens, UniProt Q86UX6): 95%
Serine/threonine-protein kinase Nek5 (NEK5, Homo sapiens, UniProt Q6P3R8): 95%
Mitogen-activated protein kinase kinase kinase 3 (MAP3K3, Homo sapiens, UniProt Q99759): 100%
Phosphatidylinositol 4,5-bisphosphate 3-kinase catalytic subunit alpha isoform (PIK3CA, Homo sapiens, UniProt P42336, E542K): 64%
Bone morphogenetic protein receptor type-1B (BMPR1B, Homo sapiens, UniProt O00238): 100%
Ribosomal protein S6 kinase alpha-2, N-terminal kinase domain (RPS6KA2, Homo sapiens, UniProt Q15349): 100%
Serine/threonine-protein kinase MRCK beta (CDC42BPB, Homo sapiens, UniProt Q9Y5S2): 97%

Set 3
SMILES: C=CCc1ccc(O)c(-c2ccc(O)c(CC=C)c2)c1
Effect on: chloride current
Endpoint: normalized current
ANO1 del476-501: Anoctamin-1 (ANO1, Homo sapiens, UniProt Q5XXA6, del476-501)
UniProt Q5XXA6, sequence (whole entry, unmodified, looked up): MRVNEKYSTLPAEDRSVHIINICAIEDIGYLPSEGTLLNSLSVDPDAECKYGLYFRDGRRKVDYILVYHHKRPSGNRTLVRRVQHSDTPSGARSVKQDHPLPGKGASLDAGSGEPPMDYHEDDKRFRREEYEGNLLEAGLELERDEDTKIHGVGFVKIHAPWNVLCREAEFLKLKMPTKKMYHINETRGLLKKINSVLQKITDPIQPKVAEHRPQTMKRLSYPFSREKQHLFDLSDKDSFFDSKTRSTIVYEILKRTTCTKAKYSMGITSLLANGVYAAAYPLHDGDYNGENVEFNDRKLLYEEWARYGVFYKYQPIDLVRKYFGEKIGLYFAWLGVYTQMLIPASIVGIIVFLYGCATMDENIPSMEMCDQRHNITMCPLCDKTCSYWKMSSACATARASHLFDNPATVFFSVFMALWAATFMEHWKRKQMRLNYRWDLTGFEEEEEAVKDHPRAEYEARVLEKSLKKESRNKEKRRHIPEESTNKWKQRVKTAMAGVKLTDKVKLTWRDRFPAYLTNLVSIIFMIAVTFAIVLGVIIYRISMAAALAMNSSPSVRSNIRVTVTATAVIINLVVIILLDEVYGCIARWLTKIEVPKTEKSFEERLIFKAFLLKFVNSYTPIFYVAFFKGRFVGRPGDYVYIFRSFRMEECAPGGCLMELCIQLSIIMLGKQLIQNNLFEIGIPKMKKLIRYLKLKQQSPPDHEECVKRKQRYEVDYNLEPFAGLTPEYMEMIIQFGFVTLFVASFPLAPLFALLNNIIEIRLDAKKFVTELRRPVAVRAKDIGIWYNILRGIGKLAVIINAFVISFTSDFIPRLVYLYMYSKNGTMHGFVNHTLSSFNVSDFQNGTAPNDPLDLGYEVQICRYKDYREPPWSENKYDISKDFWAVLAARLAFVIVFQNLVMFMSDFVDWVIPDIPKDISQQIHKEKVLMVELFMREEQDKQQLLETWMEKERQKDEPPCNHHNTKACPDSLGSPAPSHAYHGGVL
ANO1 del476-501/F628A: Anoctamin-1 (ANO1, Homo sapiens, UniProt Q5XXA6, del476-501/F628A)
ANO1 del476-501; whole-cell voltage clamp; 3 µM, wild type, concentration-response at 80 mV, added: 4 µM Ca2+: 0.595
ANO1 del476-501/F628A; whole-cell voltage clamp; 3 µM, I-V at -80 mV, added: 4 µM Ca2+: -0.641
ANO1 del476-501/F628A; whole-cell voltage clamp; 100 µM, I-V at 0 mV, added: 4 µM Ca2+: -0.0017
ANO1 del476-501/F628A; whole-cell voltage clamp; 3 µM, I-V at 100 mV, added: 4 µM Ca2+: 0.974
ANO1 del476-501; whole-cell voltage clamp; 3 µM, wild type, I-V at -40 mV, added: 4 µM Ca2+: -0.291
Anoctamin-1 (ANO1, Homo sapiens, UniProt Q5XXA6, del476-501/E659A); inside-out patch clamp; 10 µM, membrane voltage -40 mV: -0.406

Set 4
Target: Calcium/calmodulin-dependent protein kinase type II subunit alpha (CAMK2A, Homo sapiens, UniProt Q9UQM7)
UniProt Q9UQM7, sequence (whole entry, looked up): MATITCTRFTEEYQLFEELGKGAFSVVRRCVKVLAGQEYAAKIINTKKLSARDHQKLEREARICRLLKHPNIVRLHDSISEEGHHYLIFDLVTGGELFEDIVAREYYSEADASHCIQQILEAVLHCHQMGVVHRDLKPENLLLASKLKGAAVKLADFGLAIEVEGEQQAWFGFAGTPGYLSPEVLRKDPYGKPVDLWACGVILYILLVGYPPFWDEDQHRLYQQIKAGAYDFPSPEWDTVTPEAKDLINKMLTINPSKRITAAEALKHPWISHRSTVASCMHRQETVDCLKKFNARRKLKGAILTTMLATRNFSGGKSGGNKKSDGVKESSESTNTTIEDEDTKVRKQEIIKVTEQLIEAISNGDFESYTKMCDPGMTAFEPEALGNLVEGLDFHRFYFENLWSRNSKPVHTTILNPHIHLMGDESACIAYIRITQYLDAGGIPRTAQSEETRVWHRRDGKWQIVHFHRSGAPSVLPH
Effect on: enzyme activity
Action: inhibitor
Tested at: 10 µM
Endpoint: inhibition
CCCNCC(O)COc1ccccc1C(=O)CCc1ccccc1 (stereo not drawn): 5%
Cc1cnc(C)c(C)n1: -14%
COc1cc(C(=O)NC2CCCNC2)cc(OC)c1OC (stereo not drawn): -8%
CCC(=O)c1c(O)cc(O)cc1O: 17%
CC/C=C(\C(=O)N[C@@H]1C(=O)N2C(C(=O)OCOC(=O)C(C)(C)C)=C(COC(N)=O)CS[C@H]12)c1csc(N)n1: -15%
Cc1nnc(NS(=O)(=O)c2ccc(N)cc2)s1: -9%
CC(COc1ccccc1Cc1ccccc1)N1CCCCC1 (stereo not drawn): 5%
COc1nccc(N)n1: 28%
CCCCCC/C=C/CCCCCCCCCC(=O)O: 30%

A few entries again (set 2):
Ribosomal protein S6 kinase alpha-2, N-terminal kinase domain (RPS6KA2, Homo sapiens, UniProt Q15349): 100%
Serine/threonine-protein kinase 32C (STK32C, Homo sapiens, UniProt Q86UX6): 95%
SRSF protein kinase 1 (SRPK1, Homo sapiens, UniProt Q96SB4): 87%
